Assay results collected from several papers.
Numbered parts are unrelated; each lists some results of a single study.

Series 1 — cell line: HEK-293T/ACE2; tested at: concentration not given; time: 16 (unit not given); reference: vehicle
| Structure (SMILES) | viability [%] |
| --- | --- |
| CN1CCC(=C2c3ccccc3CCc3cccnc32)CC1 | 101 |
| N[C@@H](CC(=O)N1CCn2c(nnc2C(F)(F)F)C1)Cc1cc(F)c(F)cc1F | 95 |
| OC(CNCC(O)C1CCc2cc(F)ccc2O1)C1CCc2cc(F)ccc2O1 (centres unmarked) | 104 |
| C#C[C@]1(O)CC[C@H]2[C@@H]3CCC4=CC(=O)CC[C@@H]4[C@H]3C(=C)C[C@@]21CC | 100 |
| CC(=O)OCC(=O)[C@@]1(O)CC[C@H]2[C@@H]3CCC4=CC(=O)CC[C@]4(C)[C@@]3(F)[C@@H](O)C[C@@]21C | 101 |

Series 2 — method: RNA Bind-n-Seq; form: RNA; medium: in vitro; tested at: 200 nM; setting: whole 134-nt RNA, ends assumed; added: 150 mM LiCl; reference: input library; direction: higher = stronger binding; each molecule: 7-deaza-guanosine replaces G
Target: Ras GTPase-activating protein-binding protein 1, full length (G3BP1, Homo sapiens, UniProt Q13283)
Sequence of UniProt Q13283 (whole entry, looked up): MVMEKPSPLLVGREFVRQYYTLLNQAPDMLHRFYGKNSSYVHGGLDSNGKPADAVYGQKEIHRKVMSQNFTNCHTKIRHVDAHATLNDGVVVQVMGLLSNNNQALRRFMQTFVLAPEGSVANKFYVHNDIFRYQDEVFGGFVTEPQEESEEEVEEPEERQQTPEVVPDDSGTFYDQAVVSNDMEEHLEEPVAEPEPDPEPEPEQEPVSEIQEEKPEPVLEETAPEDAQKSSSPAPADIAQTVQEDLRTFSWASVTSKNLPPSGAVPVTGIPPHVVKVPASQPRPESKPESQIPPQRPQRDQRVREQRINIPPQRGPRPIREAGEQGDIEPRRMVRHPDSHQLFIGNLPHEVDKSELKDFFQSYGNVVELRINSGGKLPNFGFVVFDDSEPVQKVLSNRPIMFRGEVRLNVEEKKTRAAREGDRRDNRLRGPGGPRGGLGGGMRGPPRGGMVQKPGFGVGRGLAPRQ
| Oligonucleotide | log2 enrichment |
| --- | --- |
| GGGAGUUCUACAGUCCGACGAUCCCUCAAGUCCUGUGCUACACAUCGUAUGUACCGAAUCGGUUUGGUGGAAAGGAAAGUAUUAUGUUACGCCGUUCGGAUCUGCACUUCCAGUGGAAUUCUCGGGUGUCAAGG | 0.0481 |
| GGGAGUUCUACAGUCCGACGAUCUGGCCCUGGUGGCAUGCGGGGAGGAAGAGGUGGCCUCAUGGAUCGUGGUGGUCCCGGUUGAAUGUUCAGAGGUGGCCGUGGUGGAGACAGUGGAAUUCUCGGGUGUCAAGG | -0.0322 |
| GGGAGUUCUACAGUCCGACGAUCUCAAGUCCUGUGCUACACAUCGUAUGUACCGAAUCGGUUUGGUUUGGUUUGGGGAAAGUAUUAUGUUACGCCGUUCGGAUCUGCACUUCCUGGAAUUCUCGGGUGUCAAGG | -0.245 |
| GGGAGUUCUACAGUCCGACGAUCUCCUGUGCUACACAUCGUAUGUACCGAAUCAAACCCAAACCCCCCCAAACCCCCCCAAAAAAGUAUUAUGUUACGCCGUUCGGAUCUGCAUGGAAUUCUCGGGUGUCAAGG | 0.132 |
| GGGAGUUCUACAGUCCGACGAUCACCAUGCAGGUGGGCAUCUUUGGGAAGUGGGGCAAGGGGGGGAUAGGGAGGGGGCUAACACUUUGGGAACAGGUGGUCCCAGGUCGUUUCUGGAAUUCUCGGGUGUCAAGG | 0.369 |
| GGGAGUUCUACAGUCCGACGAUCUGGCCCUGGUGGCAUGCGGGGAGGAAGAGGUGGCCUCAUGGAUUGUGGUGGUCCCGGUGGAAUGUUCAGAGGUGGCCGUGGUGGAGACAGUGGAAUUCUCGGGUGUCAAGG | 1.04 |
| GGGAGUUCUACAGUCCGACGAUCAUGAAGAUGAAGAAGAGGAUGAUGAGGACGAGGAUGACGACGACGACGAAGAUGAUGAAGAUGAUGAUGAUGAAGAUGAUGAGGAGGAGGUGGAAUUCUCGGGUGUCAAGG | -0.104 |
| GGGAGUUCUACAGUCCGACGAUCAGUCCUGUGCUACACAUCGUAUGUACCGAAUCGGGUUUUUGGGUUUUUGGGUUUGGGAAAGUAUUAUGUUACGCCGUUCGGAUCUGCACUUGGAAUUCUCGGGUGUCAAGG | -0.498 |

Series 3 — effect on: enzyme activity; mode: inhibitor; tested at: 20 µM
Target: Replicase polyprotein 1ab, polymerase (rep, Severe acute respiratory syndrome coronavirus 2, UniProt P0DTD1)
| Compound | inhibition [%] |
| --- | --- |
| COc1cccc2cc(-c3nc([C@H]4CC[C@H](C(=O)O)CC4)n4ncnc(N)c34)[nH]c12 | -7.42 |
| CC(C)NC(=O)c1ccc(C#Cc2ccncc2)cn1 | -1.49 |
| COC(=O)CC1CC(c2ccc(O)cc2)=NO1 (centres unmarked) | -2.15 |
| O=C(N[C@H]1CCN(C(=O)c2cc(C(F)(F)F)cc(C(F)(F)F)c2)[C@H](Cc2ccc(Cl)cc2)C1)c1ccnc2ccccc12 | 0.24 |
| CCC(=O)NCC[C@@H]1CCc2ccc3c(c21)CCO3 | -2.52 |
| C[C@]12CC[C@H](O)C[C@H]1CC[C@@H]1[C@@H]2CC[C@]2(C)[C@@](O)(c3ccoc3)CC[C@]12O | -7.46 |
| COc1ccccc1N1CCN(CCCCN2C(=O)c3ccccc3C2=O)CC1 | 2.23 |
| Nc1ccn([C@@H]2C(F)=C(CO)[C@@H](O)[C@H]2O)c(=O)n1 | 1.58 |
| O=C(NNc1ccccc1)c1ccncc1 | -3.84 |
| Cn1c([N+](=O)[O-])cnc1COC(N)=O | 27.7 |
| COc1ccc2cc(OCC3(C(=O)O)CN(C(=O)c4ccc(F)cc4)C3)ccc2c1 | 0.47 |
| COc1nccnc1NS(=O)(=O)c1ccc(N)cc1 | 2.45 |
| CCOc1cc(C(=O)Nc2ccc(Cl)c(-c3nc4ccccc4[nH]3)c2)cc(OCC)c1OCC | -0.83 |
| O=C1[C@@H]2[C@H]3CC[C@H](C3)[C@@H]2C(=O)N1CCCCN1CCN(c2ncccn2)CC1 | 1.3 |

Series 4 — effect on: enzyme activity; mode: inhibitor; tested at: 20 µM; setting: hit confirmation
Target: Replicase polyprotein 1ab, main protease (rep, Severe acute respiratory syndrome coronavirus 2, UniProt P0DTD1)
| Compound | inhibition |
| --- | --- |
| CCOc1ccc(Nc2nc(-c3c(C)nc4ccccn34)cs2)cc1 | 81.2% |
| Nc1nc(S)c2ncn([C@@H]3O[C@H](CO)[C@@H](O)[C@H]3O)c2n1 | 79.6% |
| COc1cccc2c1C(=O)c1c(O)c3c(c(O)c1C2=O)C[C@@](O)(/C(CO)=N/NC(=O)CCCCCN1C(=O)C=CC1=O)C[C@@H]3O[C@H]1C[C@H](N)[C@H](O)[C@H](C)O1 | 101% |
| Oc1ccc2c3c1O[C@H]1c4[nH]c5ccccc5c4C[C@@]4(O)C(C2)N(CC2CC2)CC[C@]314 | -5.9% |
| O=C(O)/C=C/c1ccc(O)c(O)c1 | -15.5% |

For quick reference, copied from above (series 4):
| Compound | inhibition |
| --- | --- |
| CCOc1ccc(Nc2nc(-c3c(C)nc4ccccn34)cs2)cc1 | 81.2% |
| Nc1nc(S)c2ncn([C@@H]3O[C@H](CO)[C@@H](O)[C@H]3O)c2n1 | 79.6% |
| COc1cccc2c1C(=O)c1c(O)c3c(c(O)c1C2=O)C[C@@](O)(/C(CO)=N/NC(=O)CCCCCN1C(=O)C=CC1=O)C[C@@H]3O[C@H]1C[C@H](N)[C@H](O)[C@H](C)O1 | 101% |
| Oc1ccc2c3c1O[C@H]1c4[nH]c5ccccc5c4C[C@@]4(O)C(C2)N(CC2CC2)CC[C@]314 | -5.9% |
| O=C(O)/C=C/c1ccc(O)c(O)c1 | -15.5% |
